Assay results gathered from unrelated publications.
Lines come from different studies, so protocols differ.
Target: Inhibitor of nuclear factor kappa-B kinase subunit alpha (CHUK, Homo sapiens, UniProt O15111)
Sequence (O15111 1-745, as in one of the studies): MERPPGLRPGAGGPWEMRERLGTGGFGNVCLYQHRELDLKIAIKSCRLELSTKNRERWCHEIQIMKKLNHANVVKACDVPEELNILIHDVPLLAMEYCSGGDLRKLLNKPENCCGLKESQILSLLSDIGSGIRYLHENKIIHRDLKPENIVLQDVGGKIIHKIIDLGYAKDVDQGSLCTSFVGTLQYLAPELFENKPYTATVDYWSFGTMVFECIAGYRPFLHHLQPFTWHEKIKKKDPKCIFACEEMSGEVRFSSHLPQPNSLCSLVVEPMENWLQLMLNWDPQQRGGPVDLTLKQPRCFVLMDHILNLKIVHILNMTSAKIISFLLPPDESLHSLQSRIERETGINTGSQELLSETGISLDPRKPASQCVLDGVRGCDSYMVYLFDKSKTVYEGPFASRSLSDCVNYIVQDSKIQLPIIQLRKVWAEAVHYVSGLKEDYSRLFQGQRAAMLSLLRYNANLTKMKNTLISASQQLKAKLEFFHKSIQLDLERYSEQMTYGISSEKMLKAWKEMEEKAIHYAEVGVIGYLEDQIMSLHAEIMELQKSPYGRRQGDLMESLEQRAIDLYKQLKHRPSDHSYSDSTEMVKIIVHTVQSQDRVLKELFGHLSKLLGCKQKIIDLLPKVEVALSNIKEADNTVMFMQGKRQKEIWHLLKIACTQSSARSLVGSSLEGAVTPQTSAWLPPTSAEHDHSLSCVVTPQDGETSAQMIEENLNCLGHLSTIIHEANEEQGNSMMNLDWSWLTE

CC(C)[C@H]1NC(=O)C[C@H]2/C=C/CCSSC[C@@H](NC1=O)C(=O)N[C@H](Cc1cccc3ccccc13)C(=O)NCC(=O)O2 — inhibition (enzyme activity, inhibitor; 10 µM): -0.468%
CCOC(=O)[C@@H]1Cc2c(cc([N+](=O)[O-])cc2[N+](=O)[O-])[C@H](O)[C@]12C(=O)Nc1ccc(Br)cc12 — remaining binding (binding, competition with immobilised ligand; 0.1 µM): 47%
O=C1NC(=O)c2c1c1cc(F)c[n+]3c1c1c2c2cc(O)ccc2[n]1[Ru-4]312([N]=C=S)[S+]3CC[S+]1CC[S+]2CC3 (stereo not drawn) — remaining activity (enzyme activity; 100 nM, human enzyme, added: 10 µM ATP; relative to: untreated): 111%
O=C(O)c1ccccc1/C=N/Nc1nc(-c2ccccc2Cl)cs1 — inhibition (enzyme activity, inhibitor; 1 µM): -10.7%
C=CC(=O)Nc1cc(-c2nn(C3CCC(N4CCN(C(C)=O)CC4)CC3)c3ncnc(N)c23)ccc1Oc1ccccc1 (stereo not drawn) — inhibition (inhibitor, KiNativ profiling; biochemical; 2 µM): -4.5%
CN(C)[C@H]1C[C@@]23CC[C@@]4(O2)C(=CC[C@]2(C)[C@@H](c5ccc6ccncc6c5)CC[C@H]24)C=C3[C@@H](O)[C@@H]1O — inhibition (ATP probe labelling, inhibitor, KiNativ profiling; 0.1 µM): 11.3%
CS(C)(=O)=Nc1ccc(-c2ccc(-c3nc4cc(O[C@@H]5CO[C@H]6[C@@H]5OC[C@H]6O)[nH]c4cc3F)cc2)cc1 — inhibition (enzyme activity, inhibitor; 10 µM): 14%
Nc1ccc(/C=C/C(=O)N2CCc3c(oc4c(-c5ccc(F)cc5)cc(-c5ccc(C(=O)N6CCC(F)(F)CC6)cn5)cc34)C2)cn1 — remaining binding (binding, competition with immobilised ligand; 1 µM): 100%
C[C@H](NCc1ccc(-c2ccc(C(F)(F)F)cc2)cc1)C(N)=O — inhibition (cell-free assay, competition with immobilised ligand; 1 µM): 3%

Repeated from above:
CCOC(=O)[C@@H]1Cc2c(cc([N+](=O)[O-])cc2[N+](=O)[O-])[C@H](O)[C@]12C(=O)Nc1ccc(Br)cc12 — remaining binding (binding, competition with immobilised ligand; 0.1 µM): 47%
